Measurements collected from several papers.
Protocols differ between the studies behind these lines. ± gives the spread as reported.

SMILES | cell line | assay | conditions | IC50
O[C@H]1[C@H](O)C=CC(Br)[C@@H]1O (stereo partly drawn) | LAPC4 | AR transcriptional activity, antagonist, PSA promoter luciferase | 24 h | 1 µM
CN1CCc2c(c3ccccc3n2Cc2ccc(C(=O)NO)cc2)C1 | Jurkat J.gamma1 | cell viability, MTS | – | > 20 µM
COc1cc(C[C@H]2C(=O)OC[C@@H]2Cc2ccc(OC)c(OC)c2)ccc1O | CCRF-CEM | cell growth or viability, CCK-8 | 48 h | > 30 µM
CCn1c[n+](CC)c2ccc(C(=O)OC)cc21 | RC-124 kidney epithelial | cell proliferation, crystal violet staining | 96 h | > 100 µM
Cc1c(OCC(F)(F)F)ccnc1C[S@@+]([O-])c1nc2ccccc2[nH]1 | NICD-transfected HEK-293T | Notch-dependent transcription, inhibitor, luciferase reporter | 24 h | ~50 µM
O=C1[C@H](Cc2ccc(O)cc2)N2C(=O)CCN(C(=O)NCc3ccccc3)[C@H]2CN1Cc1cccc2ccccc12 | Hepa1-6 | Wnt/β-catenin signalling, inhibitor, LEF/TCF luciferase reporter | 24 h | 1.27 µM
COc1cc(C(=O)c2sc3c(C)cccc3c2N)cc(OC)c1OC | L1210 | cell growth or viability | – | 0.062 µM
COc1ccccc1-c1nccc(COc2ccccc2C[C@@H](Nc2nccc3sc(-c4ccc(F)cc4)c(-c4ccc(OCCN5CCN(C)CC5)c(Cl)c4C)c23)C(=O)O)n1 | NCI-H929 | cell viability, MTT | 48 h, 10% CFS | 0.036 µM
CC(C)=CCC[C@]1(C)C=Cc2c(O)c3c(c(CC=C(C)C)c2O1)O[C@]12C(=C[C@@H]4C[C@H]1C(C)(C)O[C@@]2(C/C=C(/C)C(=O)O)C4=O)C3=O | LAPC4 | AR transcriptional activity, antagonist, PSA promoter luciferase | 24 h | 0.269 µM
CC(=O)c1cc2c(C)cc(=O)oc2c(C)c1O | NIH3T3 | hyaluronan secretion | 72 h | 17.7 ± 10.6 µM
O=C(/C=C/c1ccc(O)c(CN2CCCCC2)c1)c1ccc(F)cc1 | WRL68 | cell growth or viability, MTT | 72 h | 22.9 µM
Cc1cc(C(=O)/C(=C\c2ccc(C)c(Cl)c2)c2ccc(C)c(Cl)c2)c(C(=O)N2CCCCC2)c(=O)[nH]1 | human Fibroblast | cell growth or viability, MTT | 72 h | 8.1 µM
O=C(N/N=C/c1c(O)ccc2ccccc12)c1ccc(-n2ccccc2=O)cc1 | PANC-1 | cell growth or viability | 72 h | 2.92 µM
CC[C@@H](C)[C@@H](NC(=O)[C@H](N)CCCCN)C(=O)N[C@H](CCCCN)C(=O)N[C@H](CCSC)C(=O)N[C@@H](C(=O)N[C@@H](C(=O)N[C@H](CO)C(=O)N[C@H](Cc1c[nH]c2ccccc12)C(=O)N[C@H](CCCCN)C(=O)NCC(=O)O)[C@H](C)CC)C(C)C | NCI-H929 | viability, TO-PRO-3 staining, flow cytometry | – | 31.9 µM
O=C(/C=C/c1ccc(O)cc1)c1ccc(F)cc1 | WRL68 | cell growth or viability, MTT | 72 h | 11.1 µM
Cc1cc(C)n(C(N)=S)n1.Cc1ccc(C(C)C)cc1.[Cl][Ru][Cl] | NALM-6 | cell growth or viability, MTT | 48 h | 51.6 µM
O=C1C(=Cc2ccccc2)CN(C(=O)c2cccc(C(=O)N3CC(=Cc4ccccc4)C(=O)C(=Cc4ccccc4)C3)c2)CC1=Cc1ccccc1 | MOLT-4/C8 and CEM T-lymphocytes | cytotoxicity | – | 24.3 µM
COc1cc(/C=C/C(=O)CC(=O)/C=C/c2ccc(O)c(OC)c2)ccc1O | MGC-803 | cell growth or viability, MTT | 72 h | 21.2 µM
COc1ccc(C[C@H](N)C(=O)N[C@H]2[C@@H](O)[C@H](n3cnc4c(N(C)C)ncnc43)O[C@@H]2CO)cc1 | NIH3T3 | resazurin | 1000 cells per well | 5.88 ± 0.85 µM
COC(=O)c1c(-c2ccccc2C)c2n(c1C(=O)OC)CCn1cccc1-2 | PANC-1 | cell growth or viability, MTT | 48 h | 67.9 µM
CCCCCc1ccc(-c2cc3ccccc3[nH]2)cc1 | HEK293 NF-κB luciferase reporter | reporter gene, refers to: NF-κB | 6 h, added: TNFα | 18.1 ± 5 µM

SMILES | cell line | assay | conditions | IC50
COC(=O)c1c(-c2ccc(Br)cc2)c2n(c1C(=O)OC)CCn1cccc1-2 | PANC-1 | cell growth or viability, MTT | 48 h | 79.7 µM
O=C(O)Cc1ccccc1Nc1c(Cl)cccc1Cl.O=C(O)Cc1ccccc1Nc1c(Cl)cccc1Cl.c1cnc2c(c1)ccc1cccnc12.c1cnc2c(c1)ccc1cccnc12 | NIH3T3 | cell viability, MTT | 48 h | 53.5 ± 2.43 µM
CCN(CC)CC1CCN(c2ncc3ncnc(Nc4ccc(F)c(Cl)c4)c3n2)CC1 | H3255 (EGFR L858R) | cell viability, Alamar Blue | 120 h | 0.02 ± 0.004 µM
O=C(O)c1cc(O)c2c(c1)C(=O)c1cccc(O)c1C2=O | MOLT-3 | cell growth or viability, ATP luminescence | 24 h | 158 µM
CS(=O)(=O)CCNCc1ccc(-c2ccc3ncnc(Nc4ccc(OCc5cccc(F)c5)c(Cl)c4)c3c2)o1 | SK-OV-3 (HER2-positive) | cell viability, MTT | 72 h | 7.98 µM
CCOP(=O)(OCC)[C@@H]1C[C@@H](Cn2c(=O)n(C(=O)c3ccc(F)cc3)c(=O)c3ccccc32)ON1C (relative stereo) | CCRF-CEM | cell growth or viability | 72 h | > 250 µM
O=c1c(O)c(-c2ccc(O)c(O)c2)oc2cc(O)cc(O)c12 | MOLT-3 | cell growth or viability, ATP luminescence | 24 h | 20 µM
Cn1cc(Nc2nccc(-c3ccc4c(c3)CN(C3COC3)CC[C@H]4NC(=O)c3cn(C(C)(C)C)nn3)n2)cn1 | human primary monocytes | TNFα production | three donors, added: anti-human CD64 (FcγR stimulation) | 0.0031 ± 0.0014 µM
Cc1ccccc1-c1c2n(c3c(=O)[nH]nc(O)c13)CCn1cccc1-2 | PANC-1 | cell growth or viability, MTT | 48 h | 60.6 µM
C=CCc1ccc(O)c(-c2ccc(O)c(CC=C)c2)c1 | PANC-1 | cell proliferation, MTS | 24 h, added: 10 µM BLM | 3.16 µM
COc1cccc2c1C(=O)c1c(O)c3c(c(O)c1C2=O)C[C@@](O)(C(=O)CO)C[C@@H]3O[C@H]1C[C@H](N)[C@H](O)[C@H](C)O1 | HCT-15/ADM2-2 | cell growth, XTT | 72 h | 1.96 µg/mL
Cc1ccc2cc(-c3ccccc3)[nH]c2c1 | HEK293 NF-κB luciferase reporter | reporter gene, refers to: NF-κB | 6 h, added: TNFα | 0.94 ± 0.4 µM
COc1ccc2cc3[n+](cc2c1OCCc1cn(Cc2cc(Cl)ccc2Cl)nn1)CCc1cc2c(cc1-3)OCO2 | HUVEC | cell growth or viability, MTT | – | 7.88 µM
COc1cc(C(=O)c2oc3ccccc3c2NC(=O)CO[N+](=O)[O-])cc(OC)c1OC | L1210 | cell growth or viability | 24 h | 33.4 µM
COC(=O)c1c(-c2cccc(Cl)c2)c2n(c1C(=O)OC)CCn1cccc1-2 | PANC-1 | cell growth or viability, MTT | 48 h | 57 µM
CC1(C)c2cc(CC(=O)c3ccc(O)cc3O)c(O)cc2OC1CO (stereo not drawn) | Hepa1c1c7 | cell growth | – | 74.3 µM
COc1cccc2c1C(=O)c1c(O)c3c(c(O)c1C2=O)C[C@@](O)(C(=O)CO)C[C@@H]3O[C@H]1C[C@H](N)[C@H](O)[C@H](C)O1 | SK-OV-3 | cell growth or viability, MTT | 72 h | 2.88 µM
COc1ccc2c(NC(C)=O)c(C(=O)c3cc(OC)c(OC)c(OC)c3)oc2c1 | L1210 | cell growth or viability | 24 h | 0.06 µM
CS(=O)(=O)N1CCN(Cc2cc3nc(-c4cccc5[nH]ncc45)nc(N4CCOCC4)c3s2)CC1 | IGROV-1 | AKT Ser473 phosphorylation, inhibitor, electrochemiluminescent immunoassay | 8 h | 0.038 ± 0.013 µM
COC(=O)c1c(-c2ccc(Cl)cc2Cl)c2n(c1C(=O)OC)CCn1cccc1-2 | PANC-1 | cell growth or viability, MTT | 48 h | 69.6 µM
COc1cc(C(=O)c2sc3c(C)cccc3c2NC(C)=O)cc(OC)c1OC | L1210 | cell growth or viability | 24 h | 0.053 µM

Repeated from above:
SMILES | cell line | assay | conditions | IC50
COC(=O)c1c(-c2ccc(Cl)cc2Cl)c2n(c1C(=O)OC)CCn1cccc1-2 | PANC-1 | cell growth or viability, MTT | 48 h | 69.6 µM
O=C(O)Cc1ccccc1Nc1c(Cl)cccc1Cl.O=C(O)Cc1ccccc1Nc1c(Cl)cccc1Cl.c1cnc2c(c1)ccc1cccnc12.c1cnc2c(c1)ccc1cccnc12 | NIH3T3 | cell viability, MTT | 48 h | 53.5 ± 2.43 µM
COc1ccc2cc3[n+](cc2c1OCCc1cn(Cc2cc(Cl)ccc2Cl)nn1)CCc1cc2c(cc1-3)OCO2 | HUVEC | cell growth or viability, MTT | – | 7.88 µM
Cn1cc(Nc2nccc(-c3ccc4c(c3)CN(C3COC3)CC[C@H]4NC(=O)c3cn(C(C)(C)C)nn3)n2)cn1 | human primary monocytes | TNFα production | three donors, added: anti-human CD64 (FcγR stimulation) | 0.0031 ± 0.0014 µM
O[C@H]1[C@H](O)C=CC(Br)[C@@H]1O (stereo partly drawn) | LAPC4 | AR transcriptional activity, antagonist, PSA promoter luciferase | 24 h | 1 µM
